Results gathered from unrelated publications.
A part holds a random share of what one study measured. Substitutions count along the parent as printed.

Block 1 — technique: RNA Bind-n-Seq; molecule type: RNA; medium: in vitro; concentration: 365 nM; reference: no-protein control; direction: higher = stronger binding; endpoint: RBNS enrichment (R)
Target: RNA binding protein fox-1 homolog 2, RRM domain, GST-SBP tag (RBFOX2, Homo sapiens, UniProt O43251-10, residues 100-194)
Setting: natural RNA segment, single round, ends assumed
Construct (chain): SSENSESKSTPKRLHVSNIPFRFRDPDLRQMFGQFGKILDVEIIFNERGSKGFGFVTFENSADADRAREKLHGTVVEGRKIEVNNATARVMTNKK
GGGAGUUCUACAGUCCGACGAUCUGAAAGUAUAAAGGUUUCCUUGUGUUUUUCUGUGAGUGAACAUUUUGUAAUAAAUUAACAAGUUUGUACAAUUUCCUUGGUCCCUUGUUGUACAUCGACACAUAUAUCUCUGGAAUUCUCGGGUGCCAA: 0.373
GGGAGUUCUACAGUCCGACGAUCGGCCUGUGCCCCUAAACACUACAUUAGACAGUGACACCCAAAGGUUUUCUUAGGAGGGUGUCUGGCAGAGACAGGCCAGCCCCCACUUGCUGGCCAGGGGUCCCUUGGGGUGGAAUUCUCGGGUGCCAA: 0.474
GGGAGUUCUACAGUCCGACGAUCAAGAUGCCCAGAGUGAUGGGUCAGCCCUUCUGCUCAAGCAGGCCGUGCCUGGCUGGUGCCAUUCAGACCGAGGCCGAAGGACUUGUGAACAAAAGCACAGAGAUGGCUCAUGGAAUUCUCGGGUGCCAA: 0.329
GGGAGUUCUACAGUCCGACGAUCGGACCUUGGCAGCCCAGGCCGGGGUGGAGCAUGGGCCUGGCCACCUCUCUCCUUUGCUGAGGCCUCCAGCUUCAGGCAGGCCAAGGCCUUCUCCUCCCCACCCGCCCUCCUGGAAUUCUCGGGUGCCAA: 0.407
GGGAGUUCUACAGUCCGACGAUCUGUUUUGUCUUCCCCUUUCUGCACUUAAAUACCUGACAGCCUGUUCGAUCGCUGUGCCUCCGAGGGCGCUUCUAGCUCAUCGUAGAUUUGUGAUGUCAUAGUGCAAACUGUGGAAUUCUCGGGUGCCAA: 0.49
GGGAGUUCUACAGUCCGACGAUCUGGGAACUUAUUAUACAUGGACAUUUUUGAAUAUGCCUUAAUUUAGAAACUGAAAAAUAAUCCAGUGACAUCAUUCUGGGUGUGUUCUCACUAGCUCGCGGGGCCACUUGUGGAAUUCUCGGGUGCCAA: 0.553
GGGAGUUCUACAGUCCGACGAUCCCAGAAGGAGCAAUGGCACCUGGGCAGUGCCAGGGCUUAAAGCCCGCUGCUCCUUUUCGGUAGAGGAGAGGCCCAUCACUGGUGUGGUGGGGUGGGCUCUCCCUUAGGCUUGGAAUUCUCGGGUGCCAA: 0.407
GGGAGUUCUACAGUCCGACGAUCAAAGUUAUUCAAGUGAAAGAAAGAGAAGGGAAUUGCUUAGUAGGAGUUCUGCAGUAUAGAACAAUUACUUGUAUGAAAUUAUACCUUUGAAUUUUAGAAUGUCAUGUGUUUGGAAUUCUCGGGUGCCAA: 1.03
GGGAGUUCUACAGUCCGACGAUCUUUGAGACAGGUGUUUUCAUCUUCUCUCAGCUCAGUGCUGUUUUGUACAGUCUCUGUGGCUUGGUUGAGUAUGCUCUUUCCUGUGCCAGGUCUUGCUCUGGCUGUUCGCUUGGAAUUCUCGGGUGCCAA: 0.4
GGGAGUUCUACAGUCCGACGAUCCAGGCCAGCCUCUCACUCCCAAGCCAUAGUCCUACUCCCAUGGGAAAGGAGGUCUUCUCUCUGCCCUGGAGGAGGACAUAUAGCUGAUUUCUGUUCUUUUAACUCUUAAAUGGAAUUCUCGGGUGCCAA: 0.448
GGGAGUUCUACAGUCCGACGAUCCCCUGAAGAAUCCACAACCAUCCUUCCAAGGUUCUCCAUCCCCACAAUGACUAGCUGUUGCUCUCCAAGCUAAGGGACCAUUCCCUGUCUUAUGCAUAUACGUAAUGUCAUGGAAUUCUCGGGUGCCAA: 0.425
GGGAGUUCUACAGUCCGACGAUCCUUCUUAGCCUCUUUGUUUAGGGGCCACUGGAGAAUUCCACUUAGGGAGACUGGAUAUAGUAGUGCAUACCUAUAACUCCAGCACUUGGGACGUGGAGGUAGGUGGAUCAUGGAAUUCUCGGGUGCCAA: 0.663

Block 2 — technique: RNA Bind-n-Seq; molecule type: RNA; medium: in vitro; concentration: 100 nM; reference: input RNA pool; direction: higher = stronger binding; endpoint: bound/input enrichment
Target: RING finger protein unkempt homolog, zinc fingers 1-6, SBP tag (UNK, Homo sapiens, UniProt Q9C0B0, residues 30-357)
Chain of UniProt Q9C0B0 (30-357, looked up): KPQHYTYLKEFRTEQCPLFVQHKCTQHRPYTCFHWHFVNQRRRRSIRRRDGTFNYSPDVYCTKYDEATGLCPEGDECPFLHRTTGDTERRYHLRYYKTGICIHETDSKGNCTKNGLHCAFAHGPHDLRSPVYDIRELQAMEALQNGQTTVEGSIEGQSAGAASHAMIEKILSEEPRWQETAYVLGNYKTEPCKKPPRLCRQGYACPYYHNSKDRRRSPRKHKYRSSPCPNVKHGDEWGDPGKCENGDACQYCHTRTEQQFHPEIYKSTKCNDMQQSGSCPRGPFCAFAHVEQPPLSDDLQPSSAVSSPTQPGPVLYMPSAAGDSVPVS
Setting: RNA with constant flanks, vertebrate orthologous sites, ends assumed
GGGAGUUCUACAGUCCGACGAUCUCUAUACAAUUUUAAAAAUAUUUCCUCAUAGGAUGCUUUGGCCUUUCAUCUAUUUAAUCAUAGCUACAUAUCUAUUUUUUAUAAGUAGCAGUACACAUUCAAAGGGGUAUUCCUAGCUCACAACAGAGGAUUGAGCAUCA: 0.776 ratio
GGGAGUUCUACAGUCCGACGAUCGUCCCUGAGUGACAGCAUCCCAUCAGUGGCCGACUCCCACUGCAGCCAUUUCUCUGAAUUCAGCUGCUCCGAUAUGGAAAGCAUGAAAACAUCCUGCAGCCACGGCUCCAAUGACUACCACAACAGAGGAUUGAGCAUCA: 0.487 ratio
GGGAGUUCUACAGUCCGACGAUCAGUUUGUAUGUACAUUAUUCACAUUCCUCUCUGUUGUGUUUAGGGAAAAAAAAAGACAUUUUAGCCUUUUUUAAGGUUAUUGAUUUAAUAUUAUUUGGUUGCAUGAAGUUGCCCUUAACCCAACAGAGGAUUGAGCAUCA: 0.562 ratio
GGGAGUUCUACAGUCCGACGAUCGAAGAUGGUGGUUGUACAUUAUUUCAUUAGAAAAUAUAAAAAUUCAUUUUGUUUUGAAGCUAGGUGUUAAACUGGAGUAGCUACUAUACCCCCAGAGAAUGGGGCAGUUGUGCCCUUCCCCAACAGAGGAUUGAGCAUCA: 0.968 ratio
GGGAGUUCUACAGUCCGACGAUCACGCUUUGAUAUUAAAUUCGACAUAAAAAGCAGCUGAUCGUAAGCACAACCCUCUUCUCCUAGCCAUUUAAAAAGGUAAAAAACAAAAAAGAAAACCUACUAGUCUUGAACAAACUGUCACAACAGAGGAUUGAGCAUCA: 0.632 ratio
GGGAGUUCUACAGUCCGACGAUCACAUGCGUGAGCUUCUCUACAGUUUAAGACGCUUCCUUUGGUUCCUCACAUAUCUCAUCCUAUUGACUUACCUAUUUUUUAAAAAUAGCAGUAUAAACUCAAAGUGGACUUAACACAGUGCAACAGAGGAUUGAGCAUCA: 0.78 ratio
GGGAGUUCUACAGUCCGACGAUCCUGUUGUGUGAAACAUGUCUACCCAGAAAAGUAAUAUUCUACAAAUACUAUUAAACAACUUAGCUAUAUUAUUUUUAAGCAUUAAAUUAUACGUCAAGGAGUUAAAAUGAAUUUCAGAGUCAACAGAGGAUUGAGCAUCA: 0.608 ratio
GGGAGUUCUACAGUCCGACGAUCCAGCUGAUUCUCUCAUAGGGAGAGCUGCACACAUUGCUGUUCUUGAUUCAGAAAUAUUUUUAGAAAAGUUCUUUUUGGUUGCUGCCCUAAAAUAUUUCCAGUAGAAGAAAAGCAUUGCAACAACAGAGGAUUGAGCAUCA: 0.555 ratio
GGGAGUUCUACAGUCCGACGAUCGUGUUGGUACAGAGUGCUCUGUGCCAGUACUCAUCAUCCCUUCUUCAUACAAACUGACCCUAGUUAUAGGAAUUUAAUAUUUUUAAAGUUUUACAUUGCUGUAUAUUCAAAGAUUUGUUUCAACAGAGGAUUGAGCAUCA: 0.674 ratio
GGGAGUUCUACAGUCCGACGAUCAGGGAUGGCCCCCAAUCCCACUUCCGUUUAUUCUGUAAACUACAACCUGUAAAUAACGUUUAGCAUUCCUAUUGUAACAAAAUUAAUUUUUAUGAAAUAAAUUAUAUUUCCUAGUCUAAUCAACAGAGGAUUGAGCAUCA: 1.42 ratio
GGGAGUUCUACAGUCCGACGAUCUGUGUUGGUGCAGAGCGUCUGUACCACUGCUCAUCGUCCCUUCUUCAUACCAACUGUCUCUAGUUGUAGGAAGUUAAUAUUUUUAAAAGUUUUACAUUGCUGUAUAUUCAAAGAUUUGUUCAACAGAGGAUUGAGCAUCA: 0.398 ratio

Block 3 — target: CCND2, cyclin fold, Cln2 fusion (human); technique: yeast growth competition, sequencing; medium: yeast; setting: weak parent motif; reference: not given; direction: higher = stronger binding; endpoint: normalised enrichment score
Starting sequence: RBL1 docking peptide (human); GSAKRRLFGEDPP
GSAKKRLLGEDPP [R5K F8L]: 0.0128
GSAVRRLFGEDPP [K4V]: 0.405
GNAKRRLFGEDPP [S2N]: 0.0739
GSAKRRLVGEDPP [F8V]: 0.293
GSAKRLLFGEDPP [R6L]: 0.414
GSAKRRLFGEDEP [P12E]: 0.712
GSAKRQLFGEDPP [R6Q]: 0.0353
GSAKRRRFGEDPP [L7R]: -0.0793
GSAKRRLFGDDPP [E10D]: 0.479
GSAKRRLFAEDPP [G9A]: 0.595
GCAKRRLFGEDPP [S2C]: 0.596
GSAKRRLAGEDPP [F8A]: 0.0278
GSAKRRDFGEDPP [L7D]: -0.154
GSAKRRSFGEDPP [L7S]: 0.0667
HSAKRRLFGEDPP [G1H]: 0.332
GSAWRRLFGEDPP [K4W]: 0.00987
GSKKRRLFGEDPP [A3K]: 0.14
GSAKPRLFGEDPP [R5P]: 0.182
GSFKRRLFGEDPP [A3F]: 0.19
GSAKRRLSGEDPP [F8S]: 0.15
GSAKRRLFWEDPP [G9W]: 0.623
GSAKRRLFGEDPK [P13K]: -0.353
GAAKRRLFGEDPP [S2A]: 0.576
GSAKRRLFLEDPP [G9L]: 0.213
GSAKKRLFGEDPP [R5K]: -0.0978

Block 4 — technique: universal PBM; molecule type: double-stranded DNA, one strand shown; medium: in vitro; concentration: 600 nM; direction: higher = stronger binding; endpoint: E-score
Target: Sal-like protein 4, full length isoform A (SALL4, Homo sapiens, UniProt Q9UJQ4, residues 1-1053)
Chain of UniProt Q9UJQ4 (whole entry, looked up): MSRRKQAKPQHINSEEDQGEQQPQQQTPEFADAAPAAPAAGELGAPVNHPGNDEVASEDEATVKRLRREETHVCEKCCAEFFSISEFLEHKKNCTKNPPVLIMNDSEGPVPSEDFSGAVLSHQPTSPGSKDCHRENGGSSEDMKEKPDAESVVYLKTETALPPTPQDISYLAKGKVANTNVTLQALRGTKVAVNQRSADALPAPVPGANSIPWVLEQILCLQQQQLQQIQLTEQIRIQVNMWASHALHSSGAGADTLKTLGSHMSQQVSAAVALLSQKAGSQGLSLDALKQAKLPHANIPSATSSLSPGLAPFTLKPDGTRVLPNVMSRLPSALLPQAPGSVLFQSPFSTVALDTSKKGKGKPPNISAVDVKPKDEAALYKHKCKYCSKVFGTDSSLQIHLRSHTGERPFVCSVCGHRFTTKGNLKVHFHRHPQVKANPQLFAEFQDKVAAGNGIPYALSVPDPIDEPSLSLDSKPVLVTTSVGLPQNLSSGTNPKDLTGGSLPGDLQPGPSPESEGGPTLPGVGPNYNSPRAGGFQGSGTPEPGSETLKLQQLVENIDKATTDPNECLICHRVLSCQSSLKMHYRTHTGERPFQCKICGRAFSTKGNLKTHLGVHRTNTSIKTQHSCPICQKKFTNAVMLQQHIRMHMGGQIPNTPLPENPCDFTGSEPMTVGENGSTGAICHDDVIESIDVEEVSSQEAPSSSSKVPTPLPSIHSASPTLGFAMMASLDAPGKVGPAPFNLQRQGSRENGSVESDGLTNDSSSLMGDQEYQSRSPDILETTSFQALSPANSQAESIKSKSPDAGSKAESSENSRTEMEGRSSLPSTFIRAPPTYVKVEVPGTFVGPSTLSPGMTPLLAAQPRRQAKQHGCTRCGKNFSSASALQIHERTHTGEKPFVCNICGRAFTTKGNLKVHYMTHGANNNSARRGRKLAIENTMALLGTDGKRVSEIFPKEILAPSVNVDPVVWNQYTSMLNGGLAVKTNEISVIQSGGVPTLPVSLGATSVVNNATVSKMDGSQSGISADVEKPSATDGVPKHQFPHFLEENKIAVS
Setting: 8-mer, flanks averaged, mean of replicates
ACCGTTAC: 0.00805
GTGTATGA: 0.258
GGCCGGAC: -0.353
TATAGGAA: 0.292
CATGCTTC: 0.0261
ATCGCTAG: 0.0624
AGTGGGAT: -0.00713
GGACATCC: -0.29
CACCAAGA: -0.0941
CGTGTTCA: 0.0741
GCCCGCGC: -0.381
AGTTGGCA: 0.0188
ATCTCTCG: -0.0242
AACATCTT: 0.101
CGATGATC: 0.0293
GGACGATA: 0.0483
CAACATGG: -0.00143
CATCTCGA: -0.0169
AACCGAGA: 0.113
AATGATTG: 0.186
CGGTTGAC: -0.196
AACTAGAT: 0.21
ATTCGTGA: 0.151
AACCGGGT: -0.309
